Assay results of several laboratories.
Several values in a cell are separate wells, animals, samples, runs or records. Numbers after ± are the reported error. Converted amounts (≈) assume the structure as drawn.
UCHL1: Ubiquitin carboxyl-terminal hydrolase isozyme L1 (UCHL1, Homo sapiens, UniProt P09936)
Sequence of UniProt P09936 (whole entry, looked up): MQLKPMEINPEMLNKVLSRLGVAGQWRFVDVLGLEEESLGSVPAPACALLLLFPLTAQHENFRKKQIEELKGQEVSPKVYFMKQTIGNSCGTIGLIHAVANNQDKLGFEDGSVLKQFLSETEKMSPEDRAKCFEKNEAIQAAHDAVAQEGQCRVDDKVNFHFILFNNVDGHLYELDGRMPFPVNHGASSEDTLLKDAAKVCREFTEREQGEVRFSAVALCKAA

Structure (SMILES) | tested on | test | system | setting | scale | measurement | result
N=C(N)c1ccc(OCc2cc(Br)cc(COc3ccc(C(=N)N)cc3)c2)cc1 | Pseudomonas aeruginosa | checkerboard | ATCC 27853 | unit not given, together with: rifampicin | lower = stronger synergy | FICI | ≤ 0.078
CN[C@H](CC(C)C)C(=O)N[C@H]1C(=O)N[C@@H](CC(N)=O)C(=O)N[C@H]2C(=O)N[C@H]3C(=O)N[C@H](C(=O)N[C@H](C(=O)O)c4cc(O)cc(O)c4-c4cc3ccc4O)[C@H](O)c3ccc(c(Cl)c3)Oc3cc2cc(c3O[C@@H]2O[C@H](CO)[C@@H](O)[C@H](O)[C@H]2O[C@H]2C[C@](C)(N)[C@H](O)[C@H](C)O2)Oc2ccc(cc2Cl)[C@H]1O | Pseudomonas aeruginosa |  | ATCC 47085 | 20 h |  | MBC | 1000 µg/mL (≈ 690 µM)
N=C(N)c1ccc(OCc2cccc(COc3ccc(C(=N)N)cc3)c2)cc1 | Pseudomonas aeruginosa |  | ATCC 27853 | concentration not given, together with: rifampicin |  | MIC in combination | 50 µg/mL
O=C(NCCc1ccccc1)C1COC2(CCCCC2)OC1 | Pseudomonas aeruginosa | crystal violet staining |  | 500 µg/mL, 24 h | reference: untreated | residual biofilm | 18 ± 4%
CC[C@H]1OC(=O)[C@H](C)[C@@H](O[C@H]2C[C@@](C)(OC)[C@@H](O)[C@H](C)O2)[C@H](C)[C@@H](O[C@@H]2O[C@H](C)C[C@H](N(C)C)[C@H]2O)[C@](C)(O)C[C@@H](C)C(=O)[C@H](C)[C@@H](O)[C@]1(C)O | Pseudomonas aeruginosa | quorum sensing | ATCC 10145-GFP | sub-MIC, 24 h, RPMI 1640, 10% FBS | reference: untreated | GFP fluorescence reduction | 40 to 65%
CC[C@H](C)CCCCC(=O)N[C@@H](CCN)C(=O)N[C@H](C(=O)N[C@@H](CCN)C(=O)N[C@H]1CCNC(=O)[C@H]([C@@H](C)O)NC(=O)[C@H](CCN)NC(=O)[C@H](CCN)NC(=O)[C@H](CC(C)C)NC(=O)[C@@H](CC(C)C)NC(=O)[C@H](CCN)NC1=O)[C@@H](C)O | Pseudomonas aeruginosa | broth microdilution | ATCC 35218, cation-adjusted Mueller-Hinton broth |  |  | MIC | 0.107 µM
N#CC(=Cc1ccccc1OC(F)F)C(=O)NC1CCCCC1 | UCHL1 | covalent, intact protein LC-MS |  | 12.5 µM |  | labelling | 21.6%
N=C(N)c1ccc(OCc2ccc(Br)cc2COc2ccc(C(=N)N)cc2)cc1 | Pseudomonas aeruginosa | checkerboard | ATCC 27853 | unit not given, together with: rifampicin | lower = stronger synergy | FICI | 0.094
COC(=O)[C@@H](NCc1cc2ccccc2nc1OCc1ccccc1)C(C)C | Pseudomonas aeruginosa |  |  | 8 µg/mL, together with: pentamidine 100 µM | reference: control | growth | 97.4%
N=C(N)c1ccc(OCCCCCOc2ccc(C(=N)N)cc2)cc1 | Pseudomonas aeruginosa | checkerboard | ATCC 27853 | unit not given, together with: rifampicin | lower = stronger synergy | FICI | ≤ 0.5
COc1ccccc1C(=O)C#Cc1ccc(F)c(F)c1 | Pseudomonas aeruginosa | RT-qPCR, item: phzC1 | biofilm cells | 10 µM, 24 h | reference: untreated | mRNA level | 46%
CC(=O)N[C@@H](CS)C(=O)O | Pseudomonas aeruginosa | crystal violet staining |  | 500 µg/mL, 24 h | reference: untreated | residual biofilm | 18 ± 6%
COc1cc(C#CC(=O)c2ccccc2Cl)ccc1O | Pseudomonas aeruginosa | static biofilm | PA14 | 10 µM, 24 h, static | reference: DMSO | biofilm formation | 76%
N#CC(=Cc1cc(F)ccc1F)C(=O)Nc1ccc2c(c1)OCCO2 | UCHL1 | covalent, intact protein LC-MS |  | 12.5 µM |  | labelling | 26.3%
O=C(NCc1ccccc1)C1COC2(CCCCC2)OC1 | Pseudomonas aeruginosa | crystal violet staining |  | 500 µg/mL, 24 h | reference: untreated | residual biofilm | 16 ± 4%
CNC(C)C1CCC(N)C(OC2C(N)CC(N)C(OC3OCC(C)(O)C(NC)C3O)C2O)O1 (centres unmarked) | Pseudomonas aeruginosa | broth microdilution, absorbance | clinical isolate P.A19, RPMI with 1640% FBS | 24 h, 37 °C |  | MIC | 32 µM
C[C@@H](O)[C@H]1C(=O)N2C(C(=O)O)=C(SCCN=CN)C[C@H]12 | Pseudomonas aeruginosa |  | BAA-2797, mouse, peritonitis model, kidney | intraperitoneal, 10 mg/kg single dose |  | bacterial load | 6.86 log10 CFU and 6.6 log10 CFU and 6.64 log10 CFU and 7.08 log10 CFU and 6.9 log10 CFU and 7.05 log10 CFU
COc1cc(C#CC(=O)c2ccc(C)cc2)ccc1O | Pseudomonas aeruginosa | static biofilm | PA14 | 10 µM, 24 h, static | reference: DMSO | biofilm formation | 74%
O=C(NCCc1ccccc1)C(O)CO (centres unmarked) | Pseudomonas aeruginosa | crystal violet staining |  | 500 µg/mL, 24 h | reference: untreated | residual biofilm | 43 ± 16%
COc1cc(C#CC(O)c2ccccc2)ccc1O (centres unmarked) | Pseudomonas aeruginosa | static biofilm | PA14 | 10 µM, 24 h | reference: DMSO | biofilm formation | 51%
N=C(N)c1cccc(OCc2ccc(COc3cccc(C(=N)N)c3)cc2)c1 | Pseudomonas aeruginosa |  | ATCC 27853 | concentration not given, together with: rifampicin |  | MIC in combination | 100 µg/mL

Structure (SMILES) | tested on | test | system | setting | scale | measurement | result
N=C(N)c1ccc(OCCCCCOc2ccc(C(=N)N)cc2)cc1 | Pseudomonas aeruginosa |  |  | 100 µM | reference: untreated | growth | 86.2%
NC[C@H]1O[C@H](O[C@H]2[C@H](O)[C@@H](O[C@H]3O[C@H](CO)[C@@H](O)[C@H](N)[C@H]3O)[C@H](N)C[C@@H]2N)[C@H](O)[C@@H](O)[C@@H]1O | Pseudomonas aeruginosa |  |  | concentration not given, 0.2 mg/mL |  | growth inhibition | 86%
CN(C)c1ccc2nc3ccc(=[N+](C)C)cc-3sc2c1 | Pseudomonas aeruginosa |  | ATCC BAA-2108, resistant | 18 h, 37 °C, LED light 10 min, 1.57 mW |  | MIC | > 128 µM
CCN1CCN(C(=O)N[C@@H](C(=O)N[C@@H]2C(=O)N3[C@@H]2SC(C)(C)[C@@H]3C(=O)O)c2ccccc2)C(=O)C1=O | Pseudomonas aeruginosa |  | R13-23 PER-producing isolate |  |  | MIC | > 128 µg/mL
Cn1nc(C2COC3(CCCCC3)O2)cc1-c1ccccc1 (centres unmarked) | Pseudomonas aeruginosa | crystal violet staining |  | 500 µg/mL, 24 h | reference: untreated | residual biofilm | 25 ± 11%
CC(C)(O/N=C(\C(=O)N[C@@H]1C(=O)N2C(C(=O)[O-])=C(C[n+]3ccccc3)CS[C@H]12)c1csc(N)n1)C(=O)O | Pseudomonas aeruginosa |  | S13-35 PER-producing isolate |  |  | MIC | > 128 µg/mL
COc1cc(C#CC(=O)C2CCCCC2)ccc1O | Pseudomonas aeruginosa | static biofilm | PA14 | 10 µM, 24 h, static | reference: DMSO | biofilm formation | 42%
N=C(N)c1ccc(OCc2cc(COc3ccc(C(=N)N)cc3)cc(-c3ccccc3)c2)cc1 | Pseudomonas aeruginosa |  | ATCC 27853 | concentration not given, together with: rifampicin |  | MIC in combination | 25 µg/mL
COC(=O)[C@H](Cc1ccc(O)cc1)NCc1cc2ccccc2nc1SC | Pseudomonas aeruginosa |  |  | 4 µg/mL, without pentamidine | reference: control | growth | 96.5%
C[C@@H](O)[C@H]1C(=O)N2C(C(=O)O)=C([C@H]3CCCO3)S[C@H]12 | Pseudomonas aeruginosa | checkerboard | carbapenem-resistant | concentration not given, together with: anionic gold nanoparticle 8 µg/mL | reference: MIC alone over combination | MIC fold reduction | > 64 fold
OB(O)c1csc2ccccc12 | Pseudomonas aeruginosa |  |  | 100 µM, 10 h | reference: untreated | growth | 103% and 105% and 92.4% and 89.6% and 102%
N=C(N)c1ccc(OCCC(CCOc2ccc(C(=N)N)cc2)c2ccccc2)cc1 (centres unmarked) | Pseudomonas aeruginosa |  | ATCC 27853 | concentration not given, together with: rifampicin |  | MIC in combination | 25 µg/mL
COc1cc(C#CC(=O)CC(C)C)ccc1O | Pseudomonas aeruginosa | static biofilm | PA14 | 10 µM, 24 h, static | reference: DMSO | biofilm formation | 68%
CO[C@@H]1[C@@H](OC(N)=O)[C@@H](O)[C@H](Oc2ccc3c(O)c(NC(=O)c4ccc(O)c(CC=C(C)C)c4)c(=O)oc3c2C)OC1(C)C | Pseudomonas aeruginosa | OD600 | PAO1 wild type | concentration not given, 24 h, LB medium |  | growth | inhibited
COc1cccc(C(=O)C#Cc2ccc(F)c(F)c2)c1 | Pseudomonas aeruginosa | biofilm formation | PA14 | static |  | IC50 | 41 µM
OC(COc1ccc2cc(Br)ccc2c1)Cn1ccnc1 (centres unmarked) | Trypanosoma cruzi | reporter translation, Renilla luciferase mRNA translation | cell-free extract | 40 µM | reference: DMSO | inhibition | -6.4%
C[C@@H](O)[C@H]1C(=O)N2C(C(=O)O)=C(S[C@@H]3CN[C@H](CNS(N)(=O)=O)C3)[C@H](C)[C@H]12 | Pseudomonas aeruginosa | checkerboard | carbapenem-resistant | concentration not given, together with: anionic gold nanoparticle 8 µg/mL | reference: MIC alone over combination | MIC fold reduction | 4 fold
CC1(C)OCC(C(=O)NCc2ccccc2)O1 (centres unmarked) | Pseudomonas aeruginosa | crystal violet staining |  | 500 µg/mL, 24 h | reference: untreated | residual biofilm | 32 ± 14%
C[C@@H](O)[C@H]1C(=O)N2C(C(=O)[O-])=C(SC3Cn4cnc[n+]4C3)[C@H](C)[C@H]12 (some centres unmarked) | Pseudomonas aeruginosa | checkerboard | carbapenem-resistant | concentration not given, together with: anionic gold nanoparticle 8 µg/mL | reference: MIC alone over combination | MIC fold reduction | 64 fold
NC[C@H]1O[C@H](O[C@H]2[C@H](O)[C@@H](O[C@H]3O[C@H](CO)[C@@H](O)[C@H](N)[C@H]3O)[C@H](N)C[C@@H]2N)[C@H](O)[C@@H](O)[C@@H]1O | Pseudomonas aeruginosa | broth microdilution | PA14, cation-adjusted Mueller-Hinton broth | 16 h, 37 °C |  | MIC | 64 µg/mL

A few entries again:
Structure (SMILES) | tested on | test | system | setting | scale | measurement | result
CNC(C)C1CCC(N)C(OC2C(N)CC(N)C(OC3OCC(C)(O)C(NC)C3O)C2O)O1 (centres unmarked) | Pseudomonas aeruginosa | broth microdilution, absorbance | clinical isolate P.A19, RPMI with 1640% FBS | 24 h, 37 °C |  | MIC | 32 µM
C[C@@H](O)[C@H]1C(=O)N2C(C(=O)O)=C(SCCN=CN)C[C@H]12 | Pseudomonas aeruginosa |  | BAA-2797, mouse, peritonitis model, kidney | intraperitoneal, 10 mg/kg single dose |  | bacterial load | 6.86 log10 CFU and 6.6 log10 CFU and 6.64 log10 CFU and 7.08 log10 CFU and 6.9 log10 CFU and 7.05 log10 CFU
COc1cc(C#CC(=O)c2ccc(C)cc2)ccc1O | Pseudomonas aeruginosa | static biofilm | PA14 | 10 µM, 24 h, static | reference: DMSO | biofilm formation | 74%
O=C(NCCc1ccccc1)C(O)CO (centres unmarked) | Pseudomonas aeruginosa | crystal violet staining |  | 500 µg/mL, 24 h | reference: untreated | residual biofilm | 43 ± 16%
COc1cc(C#CC(O)c2ccccc2)ccc1O (centres unmarked) | Pseudomonas aeruginosa | static biofilm | PA14 | 10 µM, 24 h | reference: DMSO | biofilm formation | 51%
N=C(N)c1cccc(OCc2ccc(COc3cccc(C(=N)N)c3)cc2)c1 | Pseudomonas aeruginosa |  | ATCC 27853 | concentration not given, together with: rifampicin |  | MIC in combination | 100 µg/mL
